Results gathered from unrelated publications.
Each numbered part is a random draw from the data of one study; scales do not carry over between parts. Changes are numbered by the printed parent chain.

Set 1 — target: CCNB2, cyclin fold, Cln2 fusion (human); technique: yeast growth competition, sequencing; sample: yeast; setting: weak parent motif; baseline: not given; direction: higher = stronger binding; parent: viral docking peptide; KGVKRKLFAEDSS
| Variant | normalised enrichment score |
| --- | --- |
| KGVKRKLFAIDSS [E10I] | 0.741 |
| KGVKRKLFAEDHS [S12H] | 0.561 |
| KGVKRKKFAEDSS [L7K] | 0.76 |
| KGVKRKLFAERSS [D11R] | 0.889 |
| KGVKRKLFNEDSS [A9N] | 0.513 |
| KGVKRKLFAEDCS [S12C] | 0.984 |
| KGVKRKLFACDSS [E10C] | 0.216 |
| KGVRRKLFAEDSS [K4R] | 1.49 |

Set 2 — effect on: binding; technique: phage display NGS; form: peptide; setting: panning round 2; baseline: input library
Target: UDP-N-acetylglucosamine--peptide N-acetylglucosaminyltransferase 110 kDa subunit (OGT, Homo sapiens, UniProt O15294)
UniProt O15294, sequence (whole entry, looked up): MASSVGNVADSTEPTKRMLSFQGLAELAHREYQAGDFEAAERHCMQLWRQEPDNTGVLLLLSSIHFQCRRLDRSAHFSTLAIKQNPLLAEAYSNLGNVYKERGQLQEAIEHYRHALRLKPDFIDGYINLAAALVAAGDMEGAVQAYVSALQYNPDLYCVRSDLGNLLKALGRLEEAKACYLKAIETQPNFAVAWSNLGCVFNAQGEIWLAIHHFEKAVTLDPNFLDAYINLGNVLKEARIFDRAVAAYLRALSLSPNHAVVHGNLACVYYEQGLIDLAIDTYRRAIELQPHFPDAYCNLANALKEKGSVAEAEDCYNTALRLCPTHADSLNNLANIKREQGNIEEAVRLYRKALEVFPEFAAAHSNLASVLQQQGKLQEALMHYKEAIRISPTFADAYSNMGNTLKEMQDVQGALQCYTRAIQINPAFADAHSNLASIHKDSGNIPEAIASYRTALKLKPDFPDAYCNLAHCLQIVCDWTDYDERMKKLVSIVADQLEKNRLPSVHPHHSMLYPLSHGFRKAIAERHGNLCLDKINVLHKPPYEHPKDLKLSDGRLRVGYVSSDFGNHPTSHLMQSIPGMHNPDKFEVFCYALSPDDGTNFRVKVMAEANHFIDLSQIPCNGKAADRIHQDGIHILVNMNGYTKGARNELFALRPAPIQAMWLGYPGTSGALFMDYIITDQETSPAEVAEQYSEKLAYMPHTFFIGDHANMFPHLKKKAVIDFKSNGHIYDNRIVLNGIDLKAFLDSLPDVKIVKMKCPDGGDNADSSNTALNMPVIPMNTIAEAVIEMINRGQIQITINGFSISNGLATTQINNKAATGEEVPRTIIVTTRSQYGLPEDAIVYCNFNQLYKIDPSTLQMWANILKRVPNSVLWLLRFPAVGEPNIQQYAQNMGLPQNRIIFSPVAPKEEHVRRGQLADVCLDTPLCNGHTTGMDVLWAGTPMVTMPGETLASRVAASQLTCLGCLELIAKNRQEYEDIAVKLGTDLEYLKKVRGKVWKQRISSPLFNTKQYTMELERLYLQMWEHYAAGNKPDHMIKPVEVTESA
| Molecule | minimum log2 enrichment ratio |
| --- | --- |
| HYYQHPPIGDHHMAI | 1.94 |
| QDTTFAPFYQIIAPP | 3.25 |
| DYAQFMPKYLIKQYE | 2.85 |
| HMFTNQHHFRPMHQA | 3.43 |
| NTPQYYRPYYQITVK | 2.97 |
| QPIDWLHVHRNYHH | 2.63 |
| SFVVPRYQIIYKPFQ | 2.48 |
| TYKNDRYLPFYPIII | 3.75 |

Set 3 — target: inorganic phosphate, free oxyanion; technique: microfluidic competitive inhibition; sample: in vitro, cell-free expressed; tested at: not given; direction: lower = stronger binding
Setting: derived from inhibition constants, unchanged parent 615000 nM
Parent: PafA, mature enzyme, eGFP fusion (Elizabethkingia meningoseptica, UniProt Q9KJX5); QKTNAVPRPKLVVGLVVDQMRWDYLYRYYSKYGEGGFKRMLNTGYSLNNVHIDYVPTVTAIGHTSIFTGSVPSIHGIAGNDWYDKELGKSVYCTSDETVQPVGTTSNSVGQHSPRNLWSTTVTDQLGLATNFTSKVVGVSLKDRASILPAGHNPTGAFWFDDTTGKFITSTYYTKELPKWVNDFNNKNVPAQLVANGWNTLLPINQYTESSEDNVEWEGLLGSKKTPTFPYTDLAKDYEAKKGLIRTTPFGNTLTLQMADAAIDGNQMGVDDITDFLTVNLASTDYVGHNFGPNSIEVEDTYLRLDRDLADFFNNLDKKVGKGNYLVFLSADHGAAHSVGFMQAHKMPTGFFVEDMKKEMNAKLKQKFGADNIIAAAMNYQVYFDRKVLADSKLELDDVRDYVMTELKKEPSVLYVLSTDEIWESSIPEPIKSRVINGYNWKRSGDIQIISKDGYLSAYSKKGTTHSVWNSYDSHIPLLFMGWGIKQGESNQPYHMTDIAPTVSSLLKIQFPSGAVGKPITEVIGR
| Variant | phosphate dissociation constant |
| --- | --- |
| H337V | 476 µM |
| G138V | 393 µM |
| F511V | 576 µM |
| K409V | 709 µM |
| F250G | 477 µM |
| A515V | 645 µM |
| Y231G | 167 µM |
| V320G | 749 µM |

Mixed results
| SMILES | test | test system | setting | endpoint | value |
| --- | --- | --- | --- | --- | --- |
| CC(=O)OC[C@H]1O[C@@H]([S-])[C@H](OC(C)=O)[C@@H](OC(C)=O)[C@@H]1OC(C)=O.CCP(CC)CC.[Au+] | dsDNA unwinding, PicoGreen fluorescence | annealed dsDNA substrate | 20 µM | effect | 1.69% |

For quick reference, copied from above (set 3):
| Variant | phosphate dissociation constant |
| --- | --- |
| H337V | 476 µM |
| Y231G | 167 µM |
